Experimental data pooled from the literature.
Each line is one published result; not all experiments were run side by side. ± gives the spread as reported.

SMILES	assay	test system	conditions	how to read	measurement	result
CC(C)[C@@H]1CC[C@@H](C)C[C@@H]1O	acute oral toxicity OECD	Swiss albino mice, serum	oral, 1000 mg/kg	–	alkaline phosphatase	69.5 ± 7.7 U/L
Cn1c(-c2ccc(C(N)=O)cc2F)nnc1C(C)(C)Oc1c(F)cc(Cl)cc1F	–	human	oral, 30 mg, single ascending dose	–	vessel puncture site pain	33.3%
O=C(Nc1ccccc1)C1CCN(C(=O)Oc2cccnc2)CC1	–	healthy women	oral, 60 mg, 7 days	–	adverse event Fatigue	21.4%
C=C(C)[C@@H]1CCC(C)=C[C@H]1c1c(O)cc(CCCCC)cc1O	–	human	750 mg, trial 17074, together with: rifampicin 600 mg	–	serious AEs	0%
COc1ccc([C@@H](O)c2cc(-c3ncnc4cc(N5CCOCC5)ccc34)c(F)cc2Cl)nn1	–	patients, advanced solid tumours	oral, 300 mg twice daily, treatment-emergent, together with: avelumab	reference: patients	vomiting incidence	4%
CCN(CCO)CCCC(C)Nc1ccnc2cc(Cl)ccc12 (centres unmarked)	–	newly diagnosed glioblastoma patients	oral, 200 mg/dose, grade 1, together with: radiotherapy and temozolomide	–	fatigue patients	33%
CC(C)Nc1ccnc(Nc2cccc(-c3cccnc3)c2)n1	measured: Phosphorus	mouse, blood	intraperitoneal, 3 mg/kg	–	blood chemistry	10.5 mg/dL
CCc1ccc(CC/C=C/c2ccc3c(c2)C(=O)CC3)cc1	–	Sprague-Dawley rat, female, blood	oral, 450 mg/kg/day, 14 days	–	large unstained cells	1.13%
COc1cc2c(Oc3ccc4[nH]c(C)cc4c3F)ccnc2cc1OCC1(N)CC1	–	paediatric recurrent refractory sarcoma	concentration not given, whole group	–	grade 1 or 2 ALT elevation	26.5%
Cn1cc(-c2nc(N[C@@H]3CCCC[C@@H]3N)c(F)c3c2C(=O)NC3)cn1	measured: Gastrointestinal haemorrhage	patients with relapsed or refractory AML	oral, 80 mg twice daily	–	hemorrhagic adverse events	17%
CN1CCN(S(=O)(=O)c2cc([N+](=O)[O-])ccc2N(CCOS(C)(=O)=O)CCOS(C)(=O)=O)CC1	–	naive female NSG mice, plasma	intraperitoneal, 5 mg/kg	–	Cmax	1550 nM
CC[C@H](C)CCCCC(=O)N[C@@H](CCN)C(=O)N[C@H](C(=O)N[C@@H](CCN)C(=O)N[C@H]1CCNC(=O)[C@H]([C@@H](C)O)NC(=O)[C@H](CCN)NC(=O)[C@H](CCN)NC(=O)[C@H](CC(C)C)NC(=O)[C@@H](Cc2ccccc2)NC(=O)[C@H](CCN)NC1=O)[C@@H](C)O	–	critically ill patients, non-AKI, plasma	intravenous, 150 mg/day, 6 h, median	–	concentration at steady state	3100 ng/mL
CCCCCCCCCCCCCCCC(=O)N[C@@H](CCC(=O)NCCCC[C@H](NC(=O)[C@H](CC(=O)O)NC(=O)[C@H](CO)NC(=O)[C@@H](NC(=O)[C@H](Cc1ccccc1)NC(=O)[C@@H](NC(=O)CNC(=O)[C@H](CCC(N)=O)NC(=O)[C@H](CO)NC(=O)[C@@H](N)Cc1c[nH]cn1)[C@@H](C)O)[C@@H](C)O)C(=O)N[C@@H](CO)C(=O)N[C@@H](CCC(=O)O)C(=O)N[C@@H](Cc1ccc(O)cc1)C(=O)N[C@@H](CC(C)C)C(=O)N[C@@H](CC(=O)O)C(=O)N[C@@H](CO)C(=O)N[C@@H](CCC(=O)O)C(=O)N[C@@H](CCCNC(=N)N)C(=O)N[C@@H](C)C(=O)N[C@@H](CCCNC(=N)N)C(=O)N[C@@H](CC(=O)O)C(=O)N[C@@H](Cc1ccccc1)C(=O)N[C@H](C(=O)N[C@@H](C)C(=O)N[C@@H](Cc1c[nH]c2ccccc12)C(=O)N[C@@H](CC(C)C)C(=O)N[C@@H](CCC(=O)O)C(=O)N[C@@H](C)C(=O)NCC(=O)NCC(=O)O)C(C)C)C(=O)O	measured: Dizziness	humans CrCl below 20 mL/min	subcutaneous, 100 µg single dose	–	treatment-related adverse events	33.3%
C[C@]1(CO)Cc2ncn(-c3ccc(C#N)c(Cl)c3)c2C(=O)O1	–	human	10 mg single dose	–	subjects with drug-related orthostatic hypotension	0%
